# Results pooled from the literature.
# Numbered parts are unrelated; each lists some results of a single study. Changes are numbered by the printed parent chain.

# Set 1 — method: DHFR PCA, deep sequencing; matrix: yeast; with: (+)-ABA 0.11 µM; baseline: wild-type fitted maximum; reading: higher = stronger binding
# Target: ABI1, truncated, D143A, DHFR fusion (Arabidopsis thaliana)
# Setting: methotrexate growth selection, single substitutions
# Starting sequence: PYL1, truncated, DHFR fusion (Arabidopsis thaliana); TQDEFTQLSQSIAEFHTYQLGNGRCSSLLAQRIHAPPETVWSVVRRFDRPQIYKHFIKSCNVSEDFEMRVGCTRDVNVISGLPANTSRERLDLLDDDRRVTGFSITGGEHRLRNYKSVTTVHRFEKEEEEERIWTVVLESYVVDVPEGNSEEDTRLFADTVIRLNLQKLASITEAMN
Substitution,relative binding score [%]
R163K,54.8
T6Y,40.7
A84W,96.1
I33C,4.72
I172R,-2.46
T73M,46.2
R111N,-0.378
F15W,34.8
T120N,-10.7
P37D,-8.72
T173A,37.4
F5Q,15.5
D95S,8.57
R111S,4.79
E152W,1.91
E174H,3.65
L164M,30.1

# Set 2 — target: CCNE2, cyclin fold, Cln2 fusion (human); method: yeast growth competition, sequencing; matrix: yeast; setting: weak parent motif; baseline: not given; reading: higher = stronger binding
# Starting sequence: CDC6 docking peptide (human); TLKGRRLVFDNQL
Substitution,normalised enrichment score
L7V,0.186
G4K,1.01
R5T,1.23
V8E,0.622
R6V,0.909
D10V,0.396
V8M,-0.545
Q12K,0.299
L7A,0.595
G4Q,1.2
L2G,0.7
K3T,1.31
N11E,0.334
L13R,0.386
V8C,1
L13P,0.826
Q12R,0.288
T1G,0.713
G4D,0.428
L13T,-1.05
T1D,-0.269
L13D,-0.126
T1H,0.774
V8G,0.96
L13N,0.463

# Set 3 — target: NFE2L3, bZIP domain (human); method: DHFR protein complementation; matrix: yeast; baseline: wild-type JUN-FOS pair; reading: higher = stronger binding
# Setting: single substitutions, most at no-binding floor
# Starting sequence: JUN, bZIP domain (human); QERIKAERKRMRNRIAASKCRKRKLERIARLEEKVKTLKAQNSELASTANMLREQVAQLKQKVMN; partner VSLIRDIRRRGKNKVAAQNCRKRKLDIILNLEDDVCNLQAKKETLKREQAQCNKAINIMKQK
Substitution,binding fitness
V56R,-1.51 natural log
E54I,-1.64 natural log
K39P,-1.43 natural log
E44V,-1.52 natural log
L45V,-1.47 natural log
L59T,-1.45 natural log
E33S,-1.52 natural log
S43Q,-1.5 natural log
R30T,-1.45 natural log
T37Y,-1.44 natural log
L45P,-1.53 natural log
V35S,-1.57 natural log
R30P,-1.53 natural log
Q41L,-1.47 natural log
L38I,-1.42 natural log
L38R,-1.56 natural log
K36T,-1.58 natural log
K39G,-1.46 natural log

# Set 4 — method: protein-binding microarray; molecule type: double-stranded DNA, one strand shown; matrix: in vitro; concentration: 2200 nM top; setting: 60-bp whole probe; with: salmon DNA 0.4 mg/ml; baseline: random background probes; reading: higher = stronger binding; constant ends, left off below: GCCTAGCAC … GTCTTGATTCGCTTGACGCTGCTG
# Target: Interferon regulatory factor 7, full length, phosphomimetic (IRF7, Homo sapiens, UniProt Q92985, residues 1-503, S471D/S472D/S475D/S476D/S477D/S483D/S484D/S487D)
# Chain of UniProt Q92985 (whole entry, unmodified, looked up): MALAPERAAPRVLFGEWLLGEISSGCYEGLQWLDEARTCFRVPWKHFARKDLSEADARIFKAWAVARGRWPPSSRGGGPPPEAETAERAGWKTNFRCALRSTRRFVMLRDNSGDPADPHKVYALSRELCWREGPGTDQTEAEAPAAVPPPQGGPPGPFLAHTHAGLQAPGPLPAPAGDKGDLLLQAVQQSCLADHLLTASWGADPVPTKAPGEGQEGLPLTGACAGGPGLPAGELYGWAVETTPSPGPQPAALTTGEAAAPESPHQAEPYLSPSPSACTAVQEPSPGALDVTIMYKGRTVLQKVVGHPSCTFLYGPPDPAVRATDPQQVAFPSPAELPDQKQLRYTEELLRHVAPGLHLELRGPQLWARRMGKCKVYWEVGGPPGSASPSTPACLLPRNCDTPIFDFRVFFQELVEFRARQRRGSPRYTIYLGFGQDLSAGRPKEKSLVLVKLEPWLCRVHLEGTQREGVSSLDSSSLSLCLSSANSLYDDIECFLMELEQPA
Sequence,fitted relative affinity [z-score]
GACGTACTGGGGTATCGGGACGTGCTA,-0.248
GCTTCCTCCTACCCGACCCCGTGCTAG,1.92
GACGGACTGGACTATGGGGACGTGCTA,-0.839
GACGATCTCAGTCTCGAGGCGTGCTAG,0.652
GACGGTTCCCTTTTCCAGACGTGCTAG,2.69
AACCGCACAGAACTAAAACAGTGCTAG,-0.153
TTAGGTATCGACTTTCGGATAGTGCTA,2.66
GGCTTGACGTCATCCCCTTGGTGCTAG,-0.371
GACGATTTAGGGACTGGAGACGTGCTA,-0.179
TCACTGCTACCCTCTGAAACTGTGCTA,1.07
GACGATATCGGCTATCGAGACGTGCTA,-0.24
GACGGTTCCCTTTTGCTGACGTGCTAG,2.76
GACGGTTTCCTTATCCTGTCGTGCTAG,3.4
GACGGTATCTACTTTCGGGACGTGCTA,5.1
TTAGAACTGAGTCTCGAATAGTGCTAG,-0.414
GACGGACTGGGTCTCGGGAAGTGCTAG,-0.88
TTAGGTTTCCTTATCCTTCAGTGCTAG,2.43
GACGGTCCCCTTTTCCTGACGTGCTAG,1.16
TCATTTTTCATTATTGTACTGTGCTAG,2.82

# Set 5 — method: aptamer microarray, sandwich; molecule type: DNA with 2'F-ANA; matrix: in vitro; concentration: 200 nM; with: Cy3 exosite-II aptamer, 400 nM; reading: higher = stronger binding; sequence: GGTTGGTGTGGTTGG
# Target: Prothrombin, mature alpha-thrombin (F2, Homo sapiens, UniProt P00734)
# Setting: whole 15-mer aptamer, many near background
Modification,mean fluorescence intensity [a.u.]
2'F-ANA at 1 2 4 9 10 11 12 14 15,65.9
2'F-ANA at 7 8 11 12 13,702
2'F-ANA at 1 3 4 5 7 9 11 12 13,68.3
2'F-ANA at 4 11 12 13 14 15,103
2'F-ANA at 2 4 5 7 9 10 11 12 14 15,45
2'F-ANA at 2 3 5 7 8 11 12,208
2'F-ANA at 1 2 9,194
2'F-ANA at 1 7 12 13,317
2'F-ANA at 1 2 6 7 9 12 13,203
2'F-ANA at 3 5 6 7 8 9 10 13 15,64.4
2'F-ANA at 1 5 6 7 8 10 12 13 14 15,46.3
2'F-ANA at 1 5 8 9 10 15,44.1
2'F-ANA at 1 2 4 5 6 7 8 11 15,53.9
2'F-ANA at 2 4 5 7 9 10 11 13 15,49
2'F-ANA at 3 4 7 8 10 14,260
2'F-ANA at 1 5 6 7 8 9 10 13,46.3
2'F-ANA at 1 2 8 9 10 12 13 14 15,53.8
